Results gathered from unrelated publications.
Protocols differ between the studies behind these lines. Numbers after ± are the reported error.

| SMILES | cell line | test | conditions | IC50 |
| --- | --- | --- | --- | --- |
| O=C1Nc2ccccc2/C1=N\NC(=O)c1ccccc1O | PANC-1 | cell growth or viability | 72 h | > 10 µM |
| O=C1[C@H](Cc2ccc(O)cc2)N2C(=O)CCN(C(=O)NCc3ccccc3)[C@H]2CN1Cc1cccc2ccccc12 | Hepa1-6 | Wnt/β-catenin signalling, inhibitor, LEF/TCF luciferase reporter | 24 h | 1.27 µM |
| Clc1ccc2cc(-c3ccccc3)[nH]c2c1 | HEK293 NF-κB luciferase reporter | reporter gene, refers to: NF-κB | 6 h, together with: TNFα | 9.8 ± 2.3 µM |
| COc1ccc2cc3[n+](cc2c1OCCc1cn(Cc2ccc(C(F)(F)F)cc2)nn1)CCc1cc2c(cc1-3)OCO2 | HUVEC | cell growth or viability, MTT |  | 14.4 µM |
| CC1CCN(Cc2ccc(/C=C/C(=O)c3ccc(Cl)cc3)cc2O)CC1 | WRL68 | cell growth or viability, MTT | 72 h | 14.8 µM |
| COc1ccc2oc(C(=O)c3cc(OC)c(OC)c(OC)c3)c(NC(=O)CBr)c2c1 | L1210 | cell growth or viability | 24 h | 53 µM |
| COc1ccc(C(O)COc2ccc(-c3csc(-c4ccc(OCC(O)c5ccc(OC)c(OC)c5)cc4)n3)cc2)cc1OC (centres unmarked) | KARPAS-422 | cell growth or viability, ATP luminescence |  | 0.393 µM |
| COC(=O)c1c(-c2cccc(Br)c2)c2n(c1C(=O)OC)CCn1cccc1-2 | PANC-1 | cell growth or viability, MTT | 48 h | 65.7 µM |
| CC(=O)O[C@H]1C(=O)[C@@]2(C)[C@H]([C@H](OC(=O)c3ccccc3)[C@]3(O)C[C@H](OC(=O)[C@H](O)[C@@H](NC(=O)c4ccccc4)c4ccccc4)C(C)=C1C3(C)C)[C@]1(OC(C)=O)CO[C@@H]1C[C@@H]2O | HCT-15/ADM2-2 | cell growth, XTT | 72 h | 1.57 µg/mL |
| Cc1ccc(C(C)C)cc1.Cc1ccc(C(C)C)cc1.[Cl][Ru][Cl].[Cl][Ru][Cl] | NALM-6 | cell growth or viability, MTT | 48 h | 374 µM |
| CC[C@@H](C)[C@@H](NC(=O)[C@H](N)CCCCN)C(=O)N[C@H](CCCCN)C(=O)N[C@H](CCSC)C(=O)N[C@@H](C(=O)N[C@@H](C(=O)N[C@H](CO)C(=O)N[C@H](Cc1c[nH]c2ccccc12)C(=O)N[C@H](CCCCN)C(=O)NCC(=O)O)[C@H](C)CC)C(C)C | NCI-H929 | viability, TO-PRO-3 staining, flow cytometry |  | 31.9 µM |
| COc1ccc(/C=C(\C(=O)c2cc(C)[nH]c(=O)c2C(=O)N2CCCCC2)c2ccc(OC)c(C)c2)cc1C | human Fibroblast | cell growth or viability, MTT | 72 h | > 10 µM |
| Cc1cc(=O)oc2cc(O)ccc12 | NIH3T3 | hyaluronan secretion | 72 h | 8.68 ± 1.6 µM |
| O=C(O)Cc1ccccc1Nc1c(Cl)cccc1Cl.O=C(O)Cc1ccccc1Nc1c(Cl)cccc1Cl.c1cnc2c(c1)ccc1cccnc12.c1cnc2c(c1)ccc1cccnc12 | NIH3T3 | cell viability, MTT | 48 h | 53.5 ± 2.43 µM |
| Oc1cccc(-c2nc(N3CCOCC3)c3oc4ncccc4c3n2)c1 | IGROV-1 | AKT Ser473 phosphorylation, inhibitor, electrochemiluminescent immunoassay | 8 h | 0.017 ± 0.004 µM |
| COc1cc([C@@H]2c3cc4c(cc3[C@@H](O[C@@H]3O[C@@H]5CO[C@@H](C)O[C@H]5[C@H](O)[C@H]3O)[C@H]3COC(=O)[C@H]23)OCO4)cc(OC)c1O | PANC-1 | cell proliferation, MTT | 48 h | 24.35 ± 0.001 µM |
| Cc1nc(NC(=O)N2CCC[C@H]2C(N)=O)sc1-c1ccnc(C(C)(C)C(F)(F)F)c1 | SK-OV-3 | Akt phosphorylation, inhibitor, in-cell western, refers to: Akt pSer473 | 1 h | 0.162 µM |
| CCn1c[n+](CC)c2ccc(C(=O)OC)cc21 | RC-124 kidney epithelial | cell proliferation, crystal violet staining | 96 h | > 100 µM |
| COC(=O)c1c(-c2cccc(O)c2)c2n(c1C(=O)OC)CCn1cccc1-2 | PANC-1 | cell growth or viability, MTT | 48 h | 72.6 µM |
| COc1ccccc1-c1nccc(COc2ccccc2C[C@@H](Oc2ncnc3c2c(-c2ccc(OCCN4CCN(C)CC4)c(Cl)c2C)c(-c2ccc(F)cc2)n3C)C(=O)O)n1 | NCI-H929 | cell viability, MTT | 48 h, 10% CFS | 0.032 µM |
| C[C@H]1[C@H](C)CC[C@]2(C(=O)O)CC[C@]3(C)C(=CC[C@@H]4[C@@]5(C)CC[C@H](O)C(C)(C)[C@@H]5CC[C@]43C)[C@H]12 | MDA-MB-435 | cell growth or viability | 72 h | > 10 µM |
| COc1ccc2c(NC(=O)CBr)c(C(=O)c3cc(OC)c(OC)c(OC)c3)oc2c1 | L1210 | cell growth or viability | 24 h | 0.72 µM |
| COc1cc2ncnc(Nc3ccc(OCc4ccccc4)cc3)c2cc1OC | LAPC4 | AR transcriptional activity, antagonist, PSA promoter luciferase | 24 h | 2.43 µM |

A few entries again:
| SMILES | cell line | test | conditions | IC50 |
| --- | --- | --- | --- | --- |
| COc1ccccc1-c1nccc(COc2ccccc2C[C@@H](Oc2ncnc3c2c(-c2ccc(OCCN4CCN(C)CC4)c(Cl)c2C)c(-c2ccc(F)cc2)n3C)C(=O)O)n1 | NCI-H929 | cell viability, MTT | 48 h, 10% CFS | 0.032 µM |
| C[C@H]1[C@H](C)CC[C@]2(C(=O)O)CC[C@]3(C)C(=CC[C@@H]4[C@@]5(C)CC[C@H](O)C(C)(C)[C@@H]5CC[C@]43C)[C@H]12 | MDA-MB-435 | cell growth or viability | 72 h | > 10 µM |
| COc1ccc2c(NC(=O)CBr)c(C(=O)c3cc(OC)c(OC)c(OC)c3)oc2c1 | L1210 | cell growth or viability | 24 h | 0.72 µM |
